# Measured values gathered from unrelated publications.
# Each line is one published result; not all experiments were run side by side. ± marks the error that the study gave.
SMILES,organism,test,system,setting,scale,measurement,value
COc1ccc(-c2nc(-c3ccccc3OC)[nH]c2-c2ccc(OC)cc2)cc1,Schistosoma mansoni,egg laying,worm couples,,,lowest concentration reducing egg number,5 µM
CCCSC[C@H]1CN(Cc2c[nH]c3c(N)ncnc23)C[C@@H]1O,Helicobacter pylori,growth,horse blood agar,,,IC90,~10 ng/mL
CCOC(=O)C1=C(C)NC2=C(C(=O)CC(C)(C)C2)C1c1ccc(OCC(=O)NN=Cc2cccc([N+](=O)[O-])c2)cc1OCC(=O)NN=Cc1cccc([N+](=O)[O-])c1 (stereo not shown),Pseudomonas fluorescens,,,"concentration not given, 24 h, 37 °C",,inhibition zone diameter,5.3 ± 0.1 mm
COc1ccc(S(=O)(=O)NCc2c[nH]nc2-c2cccs2)cc1,Plasmodium falciparum,parasite growth,Dd2-B2 clone,,,EC90,1070 nM
CCOC(=O)C1=C(C)NC2=C(C(=O)CC(C)(C)C2)C1c1ccc(OCC(=O)NN=Cc2cc(Br)c(O)c(Br)c2)cc1OCC(=O)NN=Cc1cc(Br)c(O)c(Br)c1 (stereo not shown),Pseudomonas fluorescens,,,"concentration not given, 24 h, 37 °C",,inhibition zone diameter,4.3 ± 0.2 mm
CCCCCCCCOC(=O)/C=C/c1ccc(O)c(O)c1,Trypanosoma brucei rhodesiense,,STIB900,"concentration not given, bloodstream trypomastigotes, active if IC50 < 10 µM",,antitrypanosomal activity,active
CO[C@H]1/C=C/O[C@@]2(C)Oc3c(C)c(O)c4c(c3C2=O)C2=NC3(CCN(CC(C)C)CC3)NC2=C(NC(=O)/C(C)=C\C=C\[C@H](C)[C@H](O)[C@@H](C)[C@@H](O)[C@@H](C)[C@H](OC(=O)c2ccccc2)[C@@H]1C)C4=O,Mycobacteroides abscessus,,ATCC 19977,,baseline: rifabutin,MIC fold lower,20 fold
CC(=O)OC[C@H]1O[C@@H](Sc2sc(C(=O)c3ccc(C)cc3)c(N)c2-c2nc3ccccc3s2)[C@H](OC(C)=O)[C@@H](OC(C)=O)[C@H]1OC(C)=O,coxsackievirus B4,plaque reduction,,"non-toxic dose NG, mean over three titres",,viral reduction,50%
COc1ncccc1C(=O)Nc1ccccc1Nc1ccccc1,Valsa mali,"mycelial growth, mycelial growth rate method",,50 mg/L,,inhibition,3.41%
N#Cc1ccc(CSc2nc3cc4ccccc4cc3c(=O)n2Cc2ccccc2)cc1,coxsackievirus B4,plaque,BGM,"concentration not given, non-toxic dose",,virus titre reduction,33.3 ± 2%
C[C@H]1CN(C(=O)c2cn(-c3ccnc(N)n3)c3cc(C#CC4(O)CCCCC4)ccc23)CCN1,human,"cell migration and invasion, Transwell",A549,concentration not given,,migrating and invading cells,decreased
Nc1ccn(C[C@@H](CO)OCP(=O)(O)OCCCS(=O)(=O)CCCCCCCCCCCCC2CCC2)c(=O)n1,human gammaherpesvirus 8,qPCR,BCBL-1,7 days,,EC50,30 ± 20 nM
COc1cccc(CSc2nc3cc4ccccc4cc3c(=O)n2Cc2ccccc2)c1,coxsackievirus B4,plaque,BGM,"concentration not given, non-toxic dose",,virus titre reduction,26.7 ± 2%
CN[C@@H]1[C@H](O)[C@H](NC)[C@H]2O[C@]3(O)[C@H](O[C@@H]2[C@H]1O)O[C@H](C)C[C@@]3(O)CNCCc1ccc(F)cc1,Mycobacteroides abscessus,RNA sequencing,ATCC 19977,"1 µg/mL, 3 h, unit not given",baseline: untreated,differentially expressed genes,1880
Cc1ccc(N2Cc3cc(NC(=O)N4CCN(c5cccc(C(F)(F)F)c5)CC4)ccc3C2=O)cc1,Trypanosoma brucei rhodesiense,,STIB-900,3 days,baseline: IC50 T. b. brucei over IC50 T. b. rhodesiense,selectivity ratio,61
CC[C@H](C)[C@H](NC(=O)[C@H](CCC(N)=O)NC(=O)[C@H](Cc1ccccc1)NC(=O)[C@H](CO)NC(=O)[C@H](CS)NC(=O)[C@H](Cc1ccccc1)NC(=O)[C@H](C)NC(=O)[C@H](CCCCN)NC(=O)[C@H](CCCNC(=N)N)NC(=O)[C@H](CCCCN)NC(=O)[C@H](CC(C)C)NC(=O)[C@H](Cc1c[nH]cn1)NC(=O)[C@@H]1CCCN1C(=O)[C@H](CCC(N)=O)NC(=O)[C@H](CC(=O)O)NC(=O)[C@H](Cc1c[nH]cn1)NC(=O)[C@H](Cc1ccccc1)NC(=O)[C@@H]1CCCN1C(=O)[C@H](CS)NC(=O)[C@H](CC(N)=O)NC(=O)[C@H](CC(=O)O)NC(=O)[C@H](CC(C)C)NC(=O)[C@H](CC(N)=O)NC(=O)[C@@H]1CCCN1C(=O)[C@H](CCC(N)=O)NC(=O)[C@@H](NC(=O)[C@H](CCCCN)NC(=O)[C@@H](NC(=O)[C@H](CS)NC(=O)[C@@H](NC(=O)[C@@H](NC(=O)[C@H](CCCNC(=N)N)NC(=O)CN)[C@@H](C)O)[C@@H](C)O)[C@@H](C)O)[C@@H](C)O)C(=O)N[C@@H](Cc1ccc(O)cc1)C(=O)N[C@@H](C)C(=O)N[C@H](C(=O)N1CCC[C@H]1C(=O)N[C@@H](Cc1c[nH]c2ccccc12)C(=O)N[C@@H](CCC(N)=O)C(=O)NCC(=O)N[C@H](C(=O)N[C@@H](CCSC)C(=O)N[C@H](C(=O)N[C@@H](CC(C)C)C(=O)N[C@@H](CO)C(=O)N[C@@H](CCCCN)C(=O)N[C@@H](CO)C(=O)N[C@H](C(=O)N[C@@H](CS)C(=O)N[C@@H](CCC(N)=O)C(=O)N[C@@H](CC(=O)O)C(=O)N[C@@H](C)C(=O)O)[C@@H](C)O)[C@@H](C)O)[C@@H](C)O)C(C)C,simian immunodeficiency virus,viral replication,"human PBMC CCR5 Δ32/Δ32, SIVmac239","10 µM, average, AUC-based",,reduction of infectious virus production,~95%
C/C=C(/C)C(=O)O[C@@H]1C=C(C)CC[C@]2(O)[C@@H](C(C)C)CC(=O)[C@]12C,Helicobacter pylori,broth microdilution,,concentration not given,,antibacterial activity,inactive
CC1(CCCCCCCCCCOCCCOP(=O)(O)CO[C@H](CO)Cn2ccc(N)nc2=O)COC1,human gammaherpesvirus 8,qPCR,BCBL-1,7 days,,EC50,530 ± 420 nM
COc1ccc(-n2c(SCC#N)nnc2[C@H](Cc2ccccc2)NC(=O)Cc2c(C)[nH]c3ccccc23)cc1,HIV-2,"HIV-2-induced cytopathicity, MTT","MT-4, wild type",,,EC50,2690 ± 170 nM
CN[C@H](CC(C)C)C(=O)N[C@H]1C(=O)N[C@@H](CC(N)=O)C(=O)N[C@H]2C(=O)N[C@H]3C(=O)N[C@H](C(=O)N[C@H](C(=O)O)c4cc(O)cc(O)c4-c4cc3ccc4O)[C@H](O)c3ccc(c(Cl)c3)Oc3cc2cc(c3O[C@@H]2O[C@H](CO)[C@@H](O)[C@H](O)[C@H]2O[C@H]2C[C@](C)(NCc3ccc(C(=O)OCCCCCCN(Cc4ccccn4)Cc4ccccn4)cc3)[C@H](O)[C@H](C)O2)Oc2ccc(cc2Cl)[C@H]1O,Bacillus subtilis,"protein synthesis, measured: KtrC",168,"concentration not given, 10 min, at peak effective concentration",baseline: untreated,regulation factor,5.4 ± 2.2
CC(C)(C)NCC(SS(=O)(=O)O)c1ccccc1 (stereo not shown),Schistosoma mansoni,,mice,"oral, 100 mg/kg single dose, 42 days post-infection",baseline: vehicle,female worm burden reduction,83%
CCCOC(=O)N1c2cc(CNC)ccc2[C@H](NC(=O)C(=O)Nc2ccc(Cl)c(F)c2)[C@H]1CNC(=N)N,HIV-1 JR-FL pseudovirus,viral infection,Cf2Th-CD4/CCR5 cells,,baseline: BNM-III-170,potency fold increase,24 fold
CO[C@H]1/C=C/O[C@@]2(C)Oc3c(C)c(O)c4c(c3C2=O)C2=NC3(CCN(CC(C)C)CC3)NC2=C(NC(=O)/C(C)=C\C=C\[C@H](C)[C@H](O)[C@@H](C)[C@@H](O)[C@@H](C)[C@H](OC(=O)c2ccccc2Cl)[C@@H]1C)C4=O,Mycobacteroides abscessus,,ATCC 19977,,baseline: wild type over arr deletion,MIC ratio,0.9
CC(C)=CCC1CC(=O)C(C)=CC2C=C(C)CC(c3ccccc3)C2C(=O)C2=C(O)C(C)(CC=C1C)C(=O)C(C)(C)C2=O (stereo not shown),human respiratory syncytial virus,immunofluorescence,"HEp-2, A2","concentration not given, 48 h post-infection",,RSV fusion protein expression,decreased
COc1ccc(-n2c(SCc3cccnc3)nnc2[C@H](Cc2ccccc2)NC(=O)Cc2c(C)[nH]c3ccccc23)cc1,HIV-2,"HIV-2-induced cytopathicity, MTT","MT-4, wild type",,,EC50,4160 ± 1270 nM
Nc1ncnc2c(CN3C[C@H](CSc4cnccn4)[C@@H](O)C3)c[nH]c12,Helicobacter pylori,microbial growth,,,,IC90,8 ng/mL
CCCCCCCCCC(=O)N[C@@H](Cc1c[nH]c2ccccc12)C(=O)N[C@H](CC(N)=O)C(=O)N[C@@H](CC(=O)O)C(=O)N[C@@H]1C(=O)NCC(=O)N[C@@H](CCCNC(=O)OC2/C=C/CCCCC2)C(=O)N[C@@H](CC(=O)O)C(=O)N[C@H](C)C(=O)N[C@@H](CC(=O)O)C(=O)NCC(=O)N[C@H](CO)C(=O)N[C@@H]([C@H](C)CC(=O)O)C(=O)N[C@@H](CC(=O)c2ccccc2N)C(=O)O[C@@H]1C (stereo partly shown),Staphylococcus aureus,isothermal microcalorimetry,MRSA,"0.5 µg/mL, UG gel",,time to detection,4 h
Cc1ccc2ccc3ccc(C)nc3c2n1.Cc1ccc2ccc3ccc(C)nc3c2n1.O.[Cl-].[Cl-].[Cl-].[Yb+3],Enterococcus faecium,bacterial growth,,,,inoculation time,48 h

# Repeated from above:
SMILES,organism,test,system,setting,scale,measurement,value
COc1cccc(CSc2nc3cc4ccccc4cc3c(=O)n2Cc2ccccc2)c1,coxsackievirus B4,plaque,BGM,"concentration not given, non-toxic dose",,virus titre reduction,26.7 ± 2%
CN[C@@H]1[C@H](O)[C@H](NC)[C@H]2O[C@]3(O)[C@H](O[C@@H]2[C@H]1O)O[C@H](C)C[C@@]3(O)CNCCc1ccc(F)cc1,Mycobacteroides abscessus,RNA sequencing,ATCC 19977,"1 µg/mL, 3 h, unit not given",baseline: untreated,differentially expressed genes,1880
Cc1ccc(N2Cc3cc(NC(=O)N4CCN(c5cccc(C(F)(F)F)c5)CC4)ccc3C2=O)cc1,Trypanosoma brucei rhodesiense,,STIB-900,3 days,baseline: IC50 T. b. brucei over IC50 T. b. rhodesiense,selectivity ratio,61
CC[C@H](C)[C@H](NC(=O)[C@H](CCC(N)=O)NC(=O)[C@H](Cc1ccccc1)NC(=O)[C@H](CO)NC(=O)[C@H](CS)NC(=O)[C@H](Cc1ccccc1)NC(=O)[C@H](C)NC(=O)[C@H](CCCCN)NC(=O)[C@H](CCCNC(=N)N)NC(=O)[C@H](CCCCN)NC(=O)[C@H](CC(C)C)NC(=O)[C@H](Cc1c[nH]cn1)NC(=O)[C@@H]1CCCN1C(=O)[C@H](CCC(N)=O)NC(=O)[C@H](CC(=O)O)NC(=O)[C@H](Cc1c[nH]cn1)NC(=O)[C@H](Cc1ccccc1)NC(=O)[C@@H]1CCCN1C(=O)[C@H](CS)NC(=O)[C@H](CC(N)=O)NC(=O)[C@H](CC(=O)O)NC(=O)[C@H](CC(C)C)NC(=O)[C@H](CC(N)=O)NC(=O)[C@@H]1CCCN1C(=O)[C@H](CCC(N)=O)NC(=O)[C@@H](NC(=O)[C@H](CCCCN)NC(=O)[C@@H](NC(=O)[C@H](CS)NC(=O)[C@@H](NC(=O)[C@@H](NC(=O)[C@H](CCCNC(=N)N)NC(=O)CN)[C@@H](C)O)[C@@H](C)O)[C@@H](C)O)[C@@H](C)O)C(=O)N[C@@H](Cc1ccc(O)cc1)C(=O)N[C@@H](C)C(=O)N[C@H](C(=O)N1CCC[C@H]1C(=O)N[C@@H](Cc1c[nH]c2ccccc12)C(=O)N[C@@H](CCC(N)=O)C(=O)NCC(=O)N[C@H](C(=O)N[C@@H](CCSC)C(=O)N[C@H](C(=O)N[C@@H](CC(C)C)C(=O)N[C@@H](CO)C(=O)N[C@@H](CCCCN)C(=O)N[C@@H](CO)C(=O)N[C@H](C(=O)N[C@@H](CS)C(=O)N[C@@H](CCC(N)=O)C(=O)N[C@@H](CC(=O)O)C(=O)N[C@@H](C)C(=O)O)[C@@H](C)O)[C@@H](C)O)[C@@H](C)O)C(C)C,simian immunodeficiency virus,viral replication,"human PBMC CCR5 Δ32/Δ32, SIVmac239","10 µM, average, AUC-based",,reduction of infectious virus production,~95%
